# Measurements of several laboratories.
# A part holds a random share of what one study measured. Changes are numbered by the printed parent chain.

# Series 1
# Target: Hepatocyte nuclear factor 3-alpha (Foxa1, Mus musculus, UniProt P35582, residues 1-468, full length assumed)
# Method: EMSA with sequencing
# Molecule type: double-stranded DNA, one strand shown
# Medium: in vitro
# Tested at: 10 and 20 nM
# Setting: whole designed probe, mean of two concentrations, ends assumed
# Baseline: negative control set to 0
# Reading: higher = stronger binding
# Constant ends, left off below: GTGAGCGGTGCCCATTGATGGGGAAC … TTTCACTGGGATCGTGGGGAC
# Target sequence (chain): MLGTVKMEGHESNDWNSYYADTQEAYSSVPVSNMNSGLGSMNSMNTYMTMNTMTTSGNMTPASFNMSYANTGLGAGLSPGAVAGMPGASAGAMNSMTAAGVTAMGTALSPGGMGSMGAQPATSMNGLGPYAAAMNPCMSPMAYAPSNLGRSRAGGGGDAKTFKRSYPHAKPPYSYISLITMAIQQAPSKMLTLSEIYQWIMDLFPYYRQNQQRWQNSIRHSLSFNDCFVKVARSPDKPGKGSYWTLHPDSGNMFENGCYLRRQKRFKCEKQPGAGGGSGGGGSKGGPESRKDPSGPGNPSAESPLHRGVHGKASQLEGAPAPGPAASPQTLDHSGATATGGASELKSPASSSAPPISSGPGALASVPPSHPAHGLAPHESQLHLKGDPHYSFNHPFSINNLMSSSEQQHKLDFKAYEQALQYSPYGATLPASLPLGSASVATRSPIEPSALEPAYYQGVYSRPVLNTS
Strand,normalised bound fraction
AAACAGTCCCATCAGGGCAATTTTGTCAATGACAGTTTCGTCAGCCTCCAAACACAGCAGAGTGGAAAACTGGTCATTCTTCAACTTTATCATGTTTATTTTGCTGGTCTTAGGCAATCCTTAAGCAAGTTTGACAAAACCCAGCTATTGCTCAATAAACCTCAGCCTTCTTGCTTGTTGTAGCAAATAAAAT,0.256 ratio
CACTCATAGTCTTGCTATCCTTCATATACAGAGATGACCCTCCCAAGCCTAAAATCAACAGGGGGAGGCATAGAGCTGTCCTTCTGGCTCTAATGTTTGCTTTACCATCATCTCCACGCCCATTTAGTCCAGCATGTGAGAGCCAGTGTGAAGTGAGCAGAATATGGCATAAGTATGGAGTCATACATCCTTA,0.283 ratio
TCCAAGCGCTCCGAATGTCCACTTGCAGATGCTACAAAAAGAGTGTTTCAAAACTGCTCTATGAAAAGGAATGTGCAAATCTGTGAGATAAATGCAAACATCACAAAGAAGTCTTTGAGAATGCTTCTGTCTAGTTTGTATGTTAAGATATTTCCCATTTCACCATACGTCTTAACGCACACCAAATGTCCAC,0.182 ratio
CTTGTCTACAATCCAGTATTTAATAGCAACTTCATCTACCAAGTGGGATAATGAATTACAAATGATAAGATGTGATCTCAAATGTTTTAGAAAAGTAATCTTGGGAGAAATAATTAAAAGTTGAAAGGCCTATTTGGAAAACAAAGGGAGAGTCATGGAGGTTTCTATCAAATTCCAGGGACAGGCAGTAGCA,-0.0325 ratio
TTGAACTGCAGTATTTTATCAATCCTGAGTCTCAGGACACTGTTTGATGGAATTAAGTAAGGTATTATGTGTTAAAGCCTGTGTGGCTTTCCCTTGTTTACTTTGGGGGAAAGGATGACAGGGGCATATACAGTGTCTCAGTGCTAATACTCCATTATAGATTAACTCGGAGTGTCGGGAGATGGCTCACATT,0.428 ratio

# Series 2
# Target: UBE2Z UBC core domain (UniProt Q9H832)
# Chain of UniProt Q9H832 (whole entry, looked up): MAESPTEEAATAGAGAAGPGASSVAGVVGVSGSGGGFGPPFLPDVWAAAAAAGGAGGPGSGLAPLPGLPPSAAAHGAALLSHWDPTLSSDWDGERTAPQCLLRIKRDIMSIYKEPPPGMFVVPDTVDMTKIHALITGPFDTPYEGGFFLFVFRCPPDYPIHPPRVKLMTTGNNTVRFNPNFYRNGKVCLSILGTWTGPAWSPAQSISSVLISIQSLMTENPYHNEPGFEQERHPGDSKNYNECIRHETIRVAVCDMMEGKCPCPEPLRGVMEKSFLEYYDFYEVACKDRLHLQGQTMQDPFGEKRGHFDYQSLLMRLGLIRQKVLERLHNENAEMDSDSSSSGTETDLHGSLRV
# Method: yeast two-hybrid
# Medium: yeast
# Setting: mostly zero background
# Baseline: not given
# Reading: higher = stronger interaction
# B1: RNF19A RING domain (UniProt Q9NV58); chain ISKQIGDFIECPLCLLRHSKDRFPDIMTCHHRSCVDCLRQYLRIEISESRVNISCPECTERFNPHDIR
# B2: SH3RF1 RING domain (UniProt Q7Z6J0); chain DESALLDLLECPVCLERLDASAKVLPCQHTFCKRCLLGIVGSRNELRCPECRTLVGSGVEEL
# B3: DZIP3 RING domain (UniProt Q86Y13); chain PDEEEEEEEPCVICHENLSPENLSVLPCAHKFHAQCIRPWLMQQGTCPTCRLHVLLPEEFP
# B4: RFWD3 RING domain (UniProt Q6PCD5); chain ASMDEEEGDTCTICLEQWTNAGDHRLSALRCGHLFGYRCISTWLKGQVRKCPQCNKKARHSDIVV
# B5: UBOX5 RING domain (UniProt O94941); chain EQPGSILGPECASCKRVFSPYFKKEPVYQLPCGHLLCRPCLGEKQRSLPMTCTACQRPVASQDVLR
# B6: RBCK1 RING domain (UniProt Q9BYM8); chain SLVLNTEPAECPVCYSVLAPGEAVVLRECLHTFCRECLQGTIRNSQEAEVSCPFIDNTYSCSGKLLEREIK
# B7: SYTL4 RING domain (UniProt Q96C24); chain RGSQHYSDRTCARCQESLGRLSPKTNTCRGCNHLVCRDCRIQESNGTWRCKVCAKEIELKKAT
Molecule,lacZ reporter activity
B1 (RNF19A RING domain),0
AMYLQENGIDCPKCKFSYALARGGCMHFHCTQCRHQFCSGCYNAFYAKNKC (RNF31 RING domain (UniProt Q96EP0)),0
B2 (SH3RF1 RING domain),0
B3 (DZIP3 RING domain),0
B4 (RFWD3 RING domain),0
B5 (UBOX5 RING domain),0
B6 (RBCK1 RING domain),0
B7 (SYTL4 RING domain),0
GSDDEEIPFKCFICRQSFQNPVVTKCRHYFCESCALQHFRTTPRCYVCDQQTNGVFNPA (RNF113A RING domain (UniProt O15541)),0

# Series 3
# Target: CCND2, cyclin fold, Cln2 fusion (human)
# Method: yeast growth competition, sequencing
# Medium: yeast
# Setting: weak parent motif
# Baseline: not given
# Reading: higher = stronger binding
# Starting sequence: SCAPER docking peptide (human); SNARRSLNFGGST
Variant,normalised enrichment score
R4N,0.374
R4F,-0.138
N2D,0.179
F9A,-0.0204
S12T,0.212
N8T,0.574
F9Q,-0.0315
S12K,0.473
L7F,-0.0865
S12G,0.578
S1E,-0.46
F9V,0.0438
R4I,0.997
R5K,-0.095
S12E,0.78
S1G,0.126

# Series 4
# Target: PABPC1L2, full length, GST fusion (mouse, UniProt A0ABA7IW68)
# Method: RNAcompete
# Molecule type: RNA
# Medium: in vitro
# Tested at: 20 nM
# Setting: 7-mer, probes averaged, single round
# Baseline: mean of 7-mers
# Reading: higher = stronger binding
# Target sequence (chain): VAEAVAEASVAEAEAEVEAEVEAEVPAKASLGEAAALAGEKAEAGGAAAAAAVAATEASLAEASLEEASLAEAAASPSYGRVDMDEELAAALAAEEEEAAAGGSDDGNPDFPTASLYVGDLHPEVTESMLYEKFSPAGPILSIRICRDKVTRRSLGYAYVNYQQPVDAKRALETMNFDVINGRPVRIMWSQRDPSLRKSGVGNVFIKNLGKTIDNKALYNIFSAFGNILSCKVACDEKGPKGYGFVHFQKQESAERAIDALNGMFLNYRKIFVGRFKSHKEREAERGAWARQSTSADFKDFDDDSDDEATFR
Strand,7-mer Z-score
UAUGUAC,-0.0355
AUGCUGA,0.0823
ACAAGGU,0.0551
GGAGGAA,0.492
GUUACUG,-0.266
UCCUUAG,-0.307
CCACGAA,-0.0518
UCAAACC,-0.262
UGCCGUG,-0.266
CUGGUUC,-0.338
AGCCGCA,-0.119
CUGCUCC,-0.315
ACUCUAG,-0.246
CUGAUAA,0.363
UCGCGGU,-0.253
AAACGGC,0.869
CGUGAUU,-0.157
AAGAAUA,0.378
GUAAGGA,0.0424
CUACUAC,-0.191
GUUUUAU,-0.229
UUCACUG,-0.26
CGCGUAA,-0.18
ACCCGAC,-0.144
CUUCGCG,-0.219

# A few entries again (series 1):
Strand,normalised bound fraction
AAACAGTCCCATCAGGGCAATTTTGTCAATGACAGTTTCGTCAGCCTCCAAACACAGCAGAGTGGAAAACTGGTCATTCTTCAACTTTATCATGTTTATTTTGCTGGTCTTAGGCAATCCTTAAGCAAGTTTGACAAAACCCAGCTATTGCTCAATAAACCTCAGCCTTCTTGCTTGTTGTAGCAAATAAAAT,0.256 ratio
CACTCATAGTCTTGCTATCCTTCATATACAGAGATGACCCTCCCAAGCCTAAAATCAACAGGGGGAGGCATAGAGCTGTCCTTCTGGCTCTAATGTTTGCTTTACCATCATCTCCACGCCCATTTAGTCCAGCATGTGAGAGCCAGTGTGAAGTGAGCAGAATATGGCATAAGTATGGAGTCATACATCCTTA,0.283 ratio
TCCAAGCGCTCCGAATGTCCACTTGCAGATGCTACAAAAAGAGTGTTTCAAAACTGCTCTATGAAAAGGAATGTGCAAATCTGTGAGATAAATGCAAACATCACAAAGAAGTCTTTGAGAATGCTTCTGTCTAGTTTGTATGTTAAGATATTTCCCATTTCACCATACGTCTTAACGCACACCAAATGTCCAC,0.182 ratio
CTTGTCTACAATCCAGTATTTAATAGCAACTTCATCTACCAAGTGGGATAATGAATTACAAATGATAAGATGTGATCTCAAATGTTTTAGAAAAGTAATCTTGGGAGAAATAATTAAAAGTTGAAAGGCCTATTTGGAAAACAAAGGGAGAGTCATGGAGGTTTCTATCAAATTCCAGGGACAGGCAGTAGCA,-0.0325 ratio
TTGAACTGCAGTATTTTATCAATCCTGAGTCTCAGGACACTGTTTGATGGAATTAAGTAAGGTATTATGTGTTAAAGCCTGTGTGGCTTTCCCTTGTTTACTTTGGGGGAAAGGATGACAGGGGCATATACAGTGTCTCAGTGCTAATACTCCATTATAGATTAACTCGGAGTGTCGGGAGATGGCTCACATT,0.428 ratio
